# Published values collected from several papers.
# Each numbered part is a random draw from the data of one study; scales do not carry over between parts.
# Sequence of UniProt P38919 (whole entry, looked up): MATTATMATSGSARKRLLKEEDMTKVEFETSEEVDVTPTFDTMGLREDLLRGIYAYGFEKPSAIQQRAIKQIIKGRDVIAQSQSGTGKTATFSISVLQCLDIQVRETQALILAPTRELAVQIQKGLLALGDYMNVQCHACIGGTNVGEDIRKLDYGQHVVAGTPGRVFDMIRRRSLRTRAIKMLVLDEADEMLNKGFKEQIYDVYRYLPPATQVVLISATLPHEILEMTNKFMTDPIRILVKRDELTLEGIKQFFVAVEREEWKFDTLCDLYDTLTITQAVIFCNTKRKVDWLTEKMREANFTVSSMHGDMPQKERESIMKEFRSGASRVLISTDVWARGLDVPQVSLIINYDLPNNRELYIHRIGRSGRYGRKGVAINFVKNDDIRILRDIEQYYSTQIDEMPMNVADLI
# Sequence of UniProt P11229 (whole entry, looked up): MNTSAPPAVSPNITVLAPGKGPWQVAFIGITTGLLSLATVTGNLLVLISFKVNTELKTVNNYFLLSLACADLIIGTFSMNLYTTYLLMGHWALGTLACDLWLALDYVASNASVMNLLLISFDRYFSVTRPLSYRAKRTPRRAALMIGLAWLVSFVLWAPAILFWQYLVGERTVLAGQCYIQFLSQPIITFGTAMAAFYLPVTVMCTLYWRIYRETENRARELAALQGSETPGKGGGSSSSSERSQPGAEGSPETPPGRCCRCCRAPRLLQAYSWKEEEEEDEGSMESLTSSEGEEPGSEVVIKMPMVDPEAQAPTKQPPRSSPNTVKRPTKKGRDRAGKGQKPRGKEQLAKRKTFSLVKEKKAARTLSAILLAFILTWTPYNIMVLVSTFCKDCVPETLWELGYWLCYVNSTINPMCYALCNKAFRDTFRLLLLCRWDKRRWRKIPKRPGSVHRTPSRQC

# Series 1 — technique: universal PBM; molecule type: double-stranded DNA, one strand shown; sample: in vitro; concentration: not given; direction: higher = stronger binding
# Target: Sal-like protein 4, full length isoform B (SALL4, Homo sapiens, UniProt Q9UJQ4-2, residues 1-616)
# Notes: 8-mer, flanks averaged, mean of replicates
# Target sequence (chain): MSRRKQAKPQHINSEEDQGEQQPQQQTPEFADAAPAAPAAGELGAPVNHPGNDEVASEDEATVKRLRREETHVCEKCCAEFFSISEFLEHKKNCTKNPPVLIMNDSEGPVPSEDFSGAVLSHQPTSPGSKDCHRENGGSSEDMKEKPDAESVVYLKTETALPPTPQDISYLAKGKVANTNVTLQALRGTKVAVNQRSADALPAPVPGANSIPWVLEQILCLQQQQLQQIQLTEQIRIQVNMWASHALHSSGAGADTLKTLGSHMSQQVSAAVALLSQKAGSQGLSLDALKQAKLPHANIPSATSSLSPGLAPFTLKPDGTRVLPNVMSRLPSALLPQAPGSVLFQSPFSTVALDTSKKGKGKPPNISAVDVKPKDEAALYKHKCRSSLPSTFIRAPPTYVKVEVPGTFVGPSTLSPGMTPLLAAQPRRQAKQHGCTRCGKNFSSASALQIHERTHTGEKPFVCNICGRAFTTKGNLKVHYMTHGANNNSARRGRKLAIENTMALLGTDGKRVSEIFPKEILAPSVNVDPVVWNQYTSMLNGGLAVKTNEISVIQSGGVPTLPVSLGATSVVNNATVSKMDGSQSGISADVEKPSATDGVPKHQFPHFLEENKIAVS
Oligonucleotide,E-score
CGGGCTAG,-0.295
ACTGGTCG,-0.25
TAAAGCGA,0.108
AGAGGATC,-0.19
AGGTTCAA,0.0817
GGCATTAA,0.0474
GGAGAGCC,-0.209
ACATAAGT,0.262

# Series 2 — technique: protein binding microarray; molecule type: double-stranded DNA, one strand shown; sample: in vitro; concentration: not given; reference: not given; direction: higher = stronger binding
# Target: Histone acetyltransferase KAT6A, winged helix 1, GST fusion (KAT6A, Homo sapiens, UniProt Q92794, residues 1-85)
# Notes: 8-mer, flanks averaged, mean of 2 arrays, mostly near background
# Construct (chain): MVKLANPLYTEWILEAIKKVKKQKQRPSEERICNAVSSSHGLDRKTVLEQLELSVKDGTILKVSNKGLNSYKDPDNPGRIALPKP
Oligonucleotide,E-score
ATAAATTG,-0.155
AGGCTTTC,-0.16
TCGGGACA,-0.0308
TCATTTCA,-0.279
AAGGTTGC,0.0686
CGCTAAGA,0.153
AAACGACC,-0.0505
AGGTTGGA,-0.0672

# Series 3 — technique: protein-binding microarray; molecule type: double-stranded DNA, one strand shown; sample: in vitro; concentration: 250 nM; notes: 60-bp whole probe; with: salmon DNA 0.4 mg/ml; reference: random background probes; direction: higher = stronger binding; shared flanks, not repeated: GCCTAGCAC … GTCTTGATTCGCTTGACGCTGCTG
# Target: Interferon regulatory factor 7, full length, phosphomimetic (IRF7, Homo sapiens, UniProt Q92985, residues 1-503, S101K/S471D/S472D/S475D/S476D/S477D/S483D/S484D/S487D)
# Sequence of UniProt Q92985 (whole entry, unmodified, looked up): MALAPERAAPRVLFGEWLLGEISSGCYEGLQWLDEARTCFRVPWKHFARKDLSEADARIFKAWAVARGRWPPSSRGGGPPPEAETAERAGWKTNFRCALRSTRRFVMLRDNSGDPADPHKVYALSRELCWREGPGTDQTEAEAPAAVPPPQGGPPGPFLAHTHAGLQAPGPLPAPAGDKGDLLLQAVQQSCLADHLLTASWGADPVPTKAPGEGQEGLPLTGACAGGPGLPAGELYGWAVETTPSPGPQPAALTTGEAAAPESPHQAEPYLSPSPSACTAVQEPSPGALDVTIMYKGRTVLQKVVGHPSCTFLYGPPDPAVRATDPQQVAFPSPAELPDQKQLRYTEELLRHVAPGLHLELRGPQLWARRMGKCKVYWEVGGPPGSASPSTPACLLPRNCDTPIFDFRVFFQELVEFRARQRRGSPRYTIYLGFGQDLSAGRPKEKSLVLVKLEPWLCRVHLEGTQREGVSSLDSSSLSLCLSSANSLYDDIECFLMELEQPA
Oligonucleotide,log fluorescence [z-score]
TTAGATTTCAGTTCCGATTTGTGCTAG,4.08
AGAGATTTCAGGAATTGAAAAGTGCTA,-0.269
TCATTTCTCAACCTCCAACTGTGCTAG,1.84
TTAGGTTTCGACTATAGGTTAGTGCTA,4.38
TTAGGACTGGACTTTCGGTTCGTGCTA,2.29
GTCGATATCAGACTGGAGACGTGCTAG,0.109
TTTTTTTTCCTAATTGAACCGTGCTAG,1.57
GACGGAATCCTTATCCTGACGTGCTAG,0.095

# Series 4 — effect on: binding; technique: phage display NGS; molecule type: peptide; notes: panning round 2; reference: input library
# Target: UDP-N-acetylglucosamine--peptide N-acetylglucosaminyltransferase 110 kDa subunit (OGT, Homo sapiens, UniProt O15294)
# Sequence of UniProt O15294 (whole entry, looked up): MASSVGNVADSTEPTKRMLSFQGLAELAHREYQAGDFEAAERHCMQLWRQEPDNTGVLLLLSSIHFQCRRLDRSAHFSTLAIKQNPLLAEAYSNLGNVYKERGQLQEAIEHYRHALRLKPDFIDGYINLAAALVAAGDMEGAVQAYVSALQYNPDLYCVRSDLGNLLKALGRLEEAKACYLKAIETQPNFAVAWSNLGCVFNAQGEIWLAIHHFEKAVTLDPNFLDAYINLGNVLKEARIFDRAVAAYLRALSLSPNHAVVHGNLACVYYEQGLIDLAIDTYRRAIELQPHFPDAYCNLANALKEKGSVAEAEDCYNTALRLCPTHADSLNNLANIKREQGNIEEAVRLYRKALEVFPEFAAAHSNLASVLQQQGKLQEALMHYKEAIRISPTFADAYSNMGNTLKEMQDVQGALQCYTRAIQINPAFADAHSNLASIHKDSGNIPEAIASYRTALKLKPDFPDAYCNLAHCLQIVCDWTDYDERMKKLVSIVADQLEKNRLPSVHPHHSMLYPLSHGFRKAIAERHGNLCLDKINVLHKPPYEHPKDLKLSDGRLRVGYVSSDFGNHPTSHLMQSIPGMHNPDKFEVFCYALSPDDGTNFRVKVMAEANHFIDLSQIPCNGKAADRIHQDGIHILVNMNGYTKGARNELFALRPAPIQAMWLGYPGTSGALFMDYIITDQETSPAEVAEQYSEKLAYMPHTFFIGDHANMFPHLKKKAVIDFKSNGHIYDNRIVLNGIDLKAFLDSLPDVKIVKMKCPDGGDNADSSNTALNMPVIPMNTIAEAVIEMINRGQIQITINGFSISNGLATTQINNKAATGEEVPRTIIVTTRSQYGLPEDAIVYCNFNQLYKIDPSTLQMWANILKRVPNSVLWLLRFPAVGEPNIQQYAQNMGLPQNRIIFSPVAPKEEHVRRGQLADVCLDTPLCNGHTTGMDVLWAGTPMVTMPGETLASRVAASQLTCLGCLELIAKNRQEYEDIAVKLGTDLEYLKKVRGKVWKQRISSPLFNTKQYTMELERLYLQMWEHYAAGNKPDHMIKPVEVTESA
Molecule,minimum log2 enrichment ratio
YDFLPMYQIRFYDYN,2.34
TYRHHNHHPLGEADV,3.55
TNMYRYPTHAHFQIK,2.1
VQAQFRPVYQIYSAP,2.15
DVYLHKHQRDHAYVA,3.49
YTPLRHPMHEHDHNH,3.3
RFMPVYQMNVPEIDV,3.33
HYDHQHRFPQLAKSA,2.02
SYVHHPPHWWDKHVS,2.62
YMPQYQIMAQDKKV,1.54
SQHVFINYHNHTHT,2.28
YGPHNHFHPHDHMP,2.56
AFSPFFPVYSIEIRR,3.29
SSWPWTMHMHQPSYH,2.33
QDFKPMYQIKIRSHA,7.09
HTEAHVNRHRHEHQI,2.48
SHMESHANNHHRAHW,2.33
HQIPVLLHHSHTRNI,2.62
INPPWHHVHRHHSWA,2.27
HVPRQHYAMYPHQYR,2.43
DFMGLEFMPVYQIRI,3.88
VMELQFLPHYQIEAF,3.31
THWSHYDTEHVDYTH,1.67
KFMPVYQIIAEMGAF,3.23
DNVYPMYQMTYKAID,3.13

# Other studies, line by line
Structure (SMILES),target,effect on,technique,concentration,with,endpoint,result
CC(C)CC(=O)N1CCc2nc(-c3ccc(Br)cc3)nc(N(C)Cc3ccccc3)c2C1,"Muscarinic acetylcholine receptor M1 (CHRM1, Homo sapiens, UniProt P11229)",binding,radioligand binding,10 µM,,inhibition,4.18%
COc1ccc([C@@]23Oc4cc(OC)cc(OC)c4[C@]2(O)c2nc(-c4ccccc4)[nH]c(=O)c2[C@H]3c2ccccc2)cc1,"Eukaryotic initiation factor 4A-III (Homo sapiens, UniProt P38919)",RNA clamping,fluorescence polarization,concentration not given,FAM-labelled poly r(AG)8 RNA,fluorescence polarization change,2.5 mP

# For quick reference, copied from above (series 4):
Molecule,minimum log2 enrichment ratio
YDFLPMYQIRFYDYN,2.34
THWSHYDTEHVDYTH,1.67
SYVHHPPHWWDKHVS,2.62
DNVYPMYQMTYKAID,3.13
